Results of several laboratories.
Lines come from different studies, so protocols differ.
Target: Dual specificity tyrosine-phosphorylation-regulated kinase 4 (DYRK4, Homo sapiens, UniProt Q9NR20)

C=CC(=O)Nc1cccc(-c2cnc3[nH]cc(C(=O)NC(C)(C)C)c3n2)c1 — inhibition (enzyme activity, inhibitor; 0.1 µM): 4%
C=CC(=O)N1Cc2nc(-c3cc(-c4cc(Cl)cnc4Cl)c(F)cc3F)n(-c3ccncn3)c2C1 — inhibition (cell-free assay, inhibitor; 1 µM): 2.9%
Cc1cccc(O[C@H]2CCC[C@@H](C(C)CNCc3ccncc3)C2)c1 (relative stereo) — inhibition (enzyme activity, inhibitor; 10 µM): -6%
CN1CCN(Cc2ccc(-c3ccc(CO[C@H]4CCC[C@@H]4NC(=O)c4cc(-c5cnn(C)c5)cnc4N)cc3)cc2)CC1 — inhibition (enzyme activity, inhibitor; 0.1 µM): 1%
NC(=O)C[C@H]1CCc2sc3ncnc(O[C@H]4CC[C@H](N5CCOCC5)CC4)c3c21 — inhibition (enzyme activity, inhibitor; 10 µM): -1%
CCn1cc(C(=O)O)c(=O)c2c(N)c(F)c(NC3CCCCC3)cc21 — inhibition (kinase activity; 0.1 µM, added: ATP at Km): 4.2%
NC(=O)[C@@H](O)C[C@H]1CCc2sc3ncnc(O[C@H]4CC[C@H](N5CCOCC5)CC4)c3c21 — inhibition (enzyme activity, inhibitor; 10 µM): -3%
Nc1ncc(-c2cc(-c3cnn(CC(F)(F)F)c3)ncc2F)nc1C(=O)NC1CNCC(F)C1 (centres unmarked) — remaining activity (enzyme activity; 1 µM; reference: DMSO control): 107%

Excerpt of the above:
NC(=O)C[C@H]1CCc2sc3ncnc(O[C@H]4CC[C@H](N5CCOCC5)CC4)c3c21 — inhibition (enzyme activity, inhibitor; 10 µM): -1%
